Assay results from different studies.

Structure (SMILES) | test | test system | setting | how to read | measurement | value
O=C(Nc1nc2cccc(-c3ccc(CN4CCS(=O)(=O)CC4)cc3)n2n1)C1CC1 | – | rheumatoid arthritis patients | oral, 100 mg twice daily, 4 weeks, TEAE regardless of relatedness | – | patients with Pyrexia | 0%
CNC(=O)c1cc(Oc2ccc(NC(=O)Nc3cc(C(C)(C)C)nn3-c3ccc4ncccc4c3)c(F)c2)ccn1 | – | patients | oral, dose not given, cycles 1 and 2, High Cmax subgroup | – | patients with grade 1 musculoskeletal disorders | 17%
Cc1cc(NC2CCN(C(=O)OC3CCN(C(=O)/C=C/CN(C)C)C3)CC2)n2ncc(C(C)C)c2n1 (stereo not shown) | Phase I dose escalation CTCAE v4.0, measured: Dyspnea | patients with advanced solid tumours | dose not given, TIW dosing any grade | – | patients with adverse event | 9%
CNC(=O)c1ccc(-c2cnc3ncc(Cc4ccc5ncccc5c4)n3n2)cc1F | measured: Asthenia | cancer patients | oral, 600 mg twice daily, all expansion cohorts, grade 3-4 | – | patients with adverse event | 0%
COc1cc(Nc2ncc3c(n2)-c2ccc(Cl)cc2C(c2c(F)cccc2OC)=NC3)ccc1C(=O)O | measured: acneiform rash, grade 1 | cancer patients, phase 1/2 | oral, dose not given, added: pembrolizumab | – | patients with adverse event | 8%
Cc1cc(-c2nnc(N)nc2-c2ccc(F)cc2)cc(Cl)n1 | measured: Hyperthyroidism | IO-naive mCRPC patients, male | oral, dose not given, treatment-related, all grades | – | patients with immune-mediated AE | 0%
C[C@@H](Nc1cc(F)cc(F)c1)c1cc(C(=O)N(C)C)cc2c(=O)cc(N3CCOCC3)oc12 | CTCAE v4, measured: deep vein thrombosis | patients with advanced solid tumours | oral, dose not given, phase I dose finding | – | patients discontinuing for AE | 0%
C[C@@H](c1ccc2nccn2c1)n1nnc2ncc(-c3cnn(C)c3)nc21 | measured: Fatigue grade ≥3 | EGFR-mutant MET-altered NSCLC | oral, dose not given, study | – | patients with treatment-related AEs | 0%
FC(F)(F)c1ccc(CNc2ccc(Cc3c[nH]c4ncc(Cl)cc34)cn2)cn1 | measured: blood alkaline phosphatase increased | patients with TGCT | oral, 1000 mg/day, all grades | – | patients with treatment-related adverse event | 10%
CCOc1c([C@H](C)n2nc(C)c3c(N)ncnc32)cc(Cl)c(F)c1[C@@H]1CNC(=O)C1 | measured: QTcF change ≤30 ms | previously treated B-cell malignancy | oral, 45 mg once daily, baseline QTcF ≤450 ms | baseline: baseline | patients | 100%

Some of these lines once more:
Structure (SMILES) | test | test system | setting | how to read | measurement | value
O=C(Nc1nc2cccc(-c3ccc(CN4CCS(=O)(=O)CC4)cc3)n2n1)C1CC1 | – | rheumatoid arthritis patients | oral, 100 mg twice daily, 4 weeks, TEAE regardless of relatedness | – | patients with Pyrexia | 0%
